Measured values of several laboratories.
Every numbered part comes from another study and shows a few of its results, in no order. Substitutions count along the parent as printed.

Sample 1
Target: CCND3, cyclin fold, Cln2 fusion (human)
Technique: yeast growth competition, sequencing
Medium: yeast
Setting: weak parent motif
Relative to: not given
Direction: higher = stronger binding
Parent: MASTL docking peptide (human); PMIAKNLMCELDE; partner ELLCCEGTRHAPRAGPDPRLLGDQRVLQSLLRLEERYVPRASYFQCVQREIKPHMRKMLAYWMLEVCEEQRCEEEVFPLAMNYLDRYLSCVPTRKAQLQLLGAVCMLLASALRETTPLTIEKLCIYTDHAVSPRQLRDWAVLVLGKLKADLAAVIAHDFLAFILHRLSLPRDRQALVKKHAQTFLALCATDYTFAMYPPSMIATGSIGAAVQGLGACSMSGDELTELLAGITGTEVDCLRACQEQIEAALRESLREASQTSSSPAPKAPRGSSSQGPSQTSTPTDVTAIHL
| Substitution | normalised enrichment score |
| --- | --- |
| PMIAKNLMYELDE [C9Y] | -0.403 |
| PMIAKNLECELDE [M8E] | 0.0616 |
| PMIAKFLMCELDE [N6F] | -0.178 |
| PNIAKNLMCELDE [M2N] | 0.108 |

Sample 2
Target: ABI1, truncated, D143A, DHFR fusion (Arabidopsis thaliana)
Technique: DHFR PCA, deep sequencing
Medium: yeast
Setting: methotrexate growth selection, single substitutions
With: (+)-ABA 17 µM
Relative to: wild-type fitted maximum
Direction: higher = stronger binding
Parent: PYL1, truncated, DHFR fusion (Arabidopsis thaliana); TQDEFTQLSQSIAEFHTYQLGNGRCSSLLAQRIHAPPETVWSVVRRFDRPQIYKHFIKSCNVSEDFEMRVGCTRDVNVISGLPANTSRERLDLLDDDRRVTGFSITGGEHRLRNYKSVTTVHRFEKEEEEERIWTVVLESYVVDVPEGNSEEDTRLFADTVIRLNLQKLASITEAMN; partner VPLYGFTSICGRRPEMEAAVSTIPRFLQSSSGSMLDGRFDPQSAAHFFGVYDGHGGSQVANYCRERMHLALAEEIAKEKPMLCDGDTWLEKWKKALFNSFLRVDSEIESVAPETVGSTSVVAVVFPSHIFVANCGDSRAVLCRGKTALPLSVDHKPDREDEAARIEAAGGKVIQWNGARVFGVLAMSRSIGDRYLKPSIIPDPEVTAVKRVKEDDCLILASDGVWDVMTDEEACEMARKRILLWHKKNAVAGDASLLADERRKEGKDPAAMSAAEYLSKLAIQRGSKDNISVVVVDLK
| Substitution | relative binding score [%] |
| --- | --- |
| K126Q | 90.3 |
| G81I | -2.49 |
| N165P | 7.83 |
| V137I | 62.7 |

Sample 3
Target: Sal-like protein 4, full length isoform A (SALL4, Homo sapiens, UniProt Q9UJQ4, residues 1-1053)
UniProt Q9UJQ4, sequence (whole entry, looked up): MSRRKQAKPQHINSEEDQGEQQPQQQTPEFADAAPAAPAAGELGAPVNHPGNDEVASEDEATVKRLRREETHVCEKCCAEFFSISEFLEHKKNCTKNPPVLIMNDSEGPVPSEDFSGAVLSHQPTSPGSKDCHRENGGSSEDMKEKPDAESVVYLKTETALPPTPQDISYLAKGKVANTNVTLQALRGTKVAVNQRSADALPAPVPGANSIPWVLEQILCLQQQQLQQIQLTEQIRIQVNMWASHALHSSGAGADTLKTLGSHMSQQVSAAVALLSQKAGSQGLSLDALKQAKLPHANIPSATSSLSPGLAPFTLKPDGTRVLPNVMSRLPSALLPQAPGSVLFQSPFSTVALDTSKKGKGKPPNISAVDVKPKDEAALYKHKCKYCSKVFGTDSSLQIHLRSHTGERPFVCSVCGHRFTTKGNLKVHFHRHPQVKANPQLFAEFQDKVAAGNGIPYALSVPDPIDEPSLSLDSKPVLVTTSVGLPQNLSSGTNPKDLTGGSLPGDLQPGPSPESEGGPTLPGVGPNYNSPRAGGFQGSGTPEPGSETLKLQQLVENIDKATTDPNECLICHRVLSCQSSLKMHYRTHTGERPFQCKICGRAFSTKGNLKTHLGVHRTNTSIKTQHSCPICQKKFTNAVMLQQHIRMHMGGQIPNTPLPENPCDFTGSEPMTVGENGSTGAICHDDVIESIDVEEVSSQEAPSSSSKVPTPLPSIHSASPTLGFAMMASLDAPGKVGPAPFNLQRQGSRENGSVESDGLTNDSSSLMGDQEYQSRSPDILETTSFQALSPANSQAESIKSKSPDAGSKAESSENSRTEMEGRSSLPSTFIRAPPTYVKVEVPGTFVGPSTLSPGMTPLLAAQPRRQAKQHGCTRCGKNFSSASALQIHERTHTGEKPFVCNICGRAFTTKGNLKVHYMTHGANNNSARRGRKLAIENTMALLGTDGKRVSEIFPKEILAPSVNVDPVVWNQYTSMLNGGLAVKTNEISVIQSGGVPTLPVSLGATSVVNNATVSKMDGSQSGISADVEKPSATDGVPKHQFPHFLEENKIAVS
Technique: universal PBM
Molecule type: double-stranded DNA, one strand shown
Medium: in vitro
Concentration: 600 nM
Setting: 8-mer, flanks averaged, mean of replicates
Direction: higher = stronger binding
| Oligonucleotide | E-score |
| --- | --- |
| CTGTTCGC | -0.0538 |
| CCCTTTCG | 0.022 |
| ACTTAGCT | -0.0927 |
| CGGAGCAC | -0.217 |
| AGCTACTC | -0.104 |
| CCACGGCA | -0.172 |

Further values, each from its own experiment
| Substance | target | assay | test system | setting | how to read | measurement | result |
| --- | --- | --- | --- | --- | --- | --- | --- |
| PhoQ, residues 284 288 289 292 302 303 TLMATV | PhoP, residues 12 14 15 18 19 LHSVW (Escherichia coli, UniProt P23836) | Sort-seq, measured: YFP reporter | E. coli | PhoQ-PhoP variant library, with: 10 µM Mg2+ | relative to: high Mg2+ state, higher = stronger signaling | fold induction | 2.31 |

Some of these lines once more (sample 3):
| Oligonucleotide | E-score |
| --- | --- |
| AGCTACTC | -0.104 |
| CCACGGCA | -0.172 |
